Results pooled from the literature.
Protocols differ between the studies behind these lines. Numbers after ± are the reported error.

Compound | test | system | setting | quantity | result
COc1cc(NC(=O)C(=O)c2c(C)n(Cc3ccc(Cl)cc3)c3ccc(C)cc23)ccn1 | – | male cynomolgus monkey, plasma | intravenous, 1 mg/kg | AUC | 2140 ng·h/mL
O=P1(NCCCl)NCCCO1 (centres unmarked) | – | rat, plasma | intravenous, 10 mg/kg CP, added: ketoconazole 0 mg/kg | Cmax | 184 ± 36.2 ng/mL
O=C(c1ccc(F)cc1)C1CCN(C2Cc3c(cccc3OCC[18F])CC2O)CC1 (single isomer, unassigned; (-)) | – | cynomolgus monkey, arterial blood | dose not given, plasma over whole blood | plasma radioactivity fraction | 70 to 82%
[18F]c1ccc2cc(-c3cnc(N4CCOCC4)nc3)[nH]c2c1 | dynamic PET | Sprague-Dawley rats, both sexes, whole brain | intravenous, dose not given | peak brain radioactivity | 2.8 ± 0.15 SUV
Cc1ccc(OCC(=O)N(Cc2cccs2)c2ccn[nH]2)cc1 | – | pregnant Crl:CD(SD) rat | oral, 125 mg/kg/day | fetal body weight | 5.7 g
CCCCCCCCCCCCCCCC(=O)N[C@@H](CCC(=O)NCCCC[C@H](NC(=O)[C@H](CC(=O)O)NC(=O)[C@H](CO)NC(=O)[C@@H](NC(=O)[C@H](Cc1ccccc1)NC(=O)[C@@H](NC(=O)CNC(=O)[C@H](CCC(N)=O)NC(=O)[C@H](C)NC(=O)[C@@H](Cc1ccc(O)cc1)NC(C)=O)[C@@H](C)O)[C@@H](C)O)C(=O)N[C@@H](CO)C(=O)N[C@@H](CCCCN)C(=O)N[C@@H](Cc1ccc(O)cc1)C(=O)N[C@@H](CC(C)C)C(=O)N[C@@H](CC(=O)O)C(=O)N[C@@H](CCC(=O)O)C(=O)N[C@@H](CCCNC(=N)N)C(=O)N[C@@H](C)C(=O)N[C@@H](C)C(=O)N[C@@H](CCC(N)=O)C(=O)N[C@@H](CC(=O)O)C(=O)N[C@@H](Cc1ccccc1)C(=O)N[C@H](C(=O)N[C@@H](CCC(N)=O)C(=O)N[C@@H](Cc1c[nH]c2ccccc12)C(=O)N[C@@H](CC(C)C)C(=O)N[C@@H](CC(C)C)C(=O)N[C@@H](CCC(=O)O)C(=O)NCC(=O)NCC(=O)N1CCC[C@H]1C(=O)N[C@@H](CO)C(=O)N[C@@H](CO)C(=O)NCC(=O)N[C@@H](C)C(=O)N1CCC[C@H]1C(=O)N1CCC[C@H]1C(=O)N1CCC[C@H]1C(=O)N[C@@H](CO)C(N)=O)C(C)C)C(=O)O | – | male cynomolgus monkey, plasma | subcutaneous | half-life | ~6 h
COC(=O)C[C@](O)(CCCC(C)(C)OC(C)=O)C(=O)O[C@@H]1C(OC)=C[C@]23CCCN2CCc2cc4c(cc2[C@H]13)OCO4 | – | CD1 mouse, lung | subcutaneous, 1 mg/kg, 2 h | tissue concentration | 90.9 ng/mL
CCCCCCCCCCCCCCC(=O)O.O=C1CCCC2C3CCCN4CCCC(CN12)C34 (centres unmarked) | thermogravimetry | – | first decomposition step, added: heating 10 K/min under argon | onset decomposition temperature | 271 °C
Cn1cc(-c2cccc(CN3CCC4(CC3)COc3c4ccc4c3CN([C@H]3CCC(=O)NC3=O)C4=O)c2)cn1 | – | mouse Crbn I391V, spleen | oral, 30 mg/kg, 6 h | tissue concentration | 1930 ng/g
CCCCCCCC(=O)SCC/C=C/[C@@H]1CC(=O)NCc2nc(cs2)C2=N[C@@](C)(CS2)C(=O)N[C@@H](C(C)C)C(=O)N1 | – | female NIH Swiss mice | intravenous bolus, 5 mg/kg, two-compartment model | elimination half-life | 2.32 h
O=C1C(P(=O)(O)O)CCCN1O (centres unmarked) | – | nude mice | intravenous, dose escalation | tolerated dose | ≤ 300 mg/kg/day

For quick reference, copied from above:
Compound | test | system | setting | quantity | result
CCCCCCCCCCCCCCC(=O)O.O=C1CCCC2C3CCCN4CCCC(CN12)C34 (centres unmarked) | thermogravimetry | – | first decomposition step, added: heating 10 K/min under argon | onset decomposition temperature | 271 °C
Cn1cc(-c2cccc(CN3CCC4(CC3)COc3c4ccc4c3CN([C@H]3CCC(=O)NC3=O)C4=O)c2)cn1 | – | mouse Crbn I391V, spleen | oral, 30 mg/kg, 6 h | tissue concentration | 1930 ng/g
